Assay results gathered from unrelated publications.
A part holds a random share of what one study measured. ± gives the spread as reported.
UniProt Q14164, sequence (whole entry, looked up): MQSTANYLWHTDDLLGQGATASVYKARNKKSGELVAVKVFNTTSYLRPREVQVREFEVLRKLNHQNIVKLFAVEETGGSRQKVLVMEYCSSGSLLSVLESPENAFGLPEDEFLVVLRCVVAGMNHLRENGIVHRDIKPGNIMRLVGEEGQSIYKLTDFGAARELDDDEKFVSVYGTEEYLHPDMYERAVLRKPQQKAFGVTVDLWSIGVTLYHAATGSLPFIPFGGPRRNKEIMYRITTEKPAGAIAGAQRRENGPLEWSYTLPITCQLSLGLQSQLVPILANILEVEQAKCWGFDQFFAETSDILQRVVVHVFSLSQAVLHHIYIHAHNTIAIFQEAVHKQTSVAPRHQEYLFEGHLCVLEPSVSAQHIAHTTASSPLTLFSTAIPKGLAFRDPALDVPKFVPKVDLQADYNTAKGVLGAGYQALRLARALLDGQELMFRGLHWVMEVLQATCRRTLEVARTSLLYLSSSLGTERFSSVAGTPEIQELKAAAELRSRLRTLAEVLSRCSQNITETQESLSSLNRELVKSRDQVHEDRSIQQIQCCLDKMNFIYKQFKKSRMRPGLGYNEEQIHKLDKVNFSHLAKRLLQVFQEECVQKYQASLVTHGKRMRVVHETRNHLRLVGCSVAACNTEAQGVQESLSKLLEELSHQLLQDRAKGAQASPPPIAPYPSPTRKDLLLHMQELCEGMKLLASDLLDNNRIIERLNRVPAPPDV

Block 1
Organism: Enterococcus faecalis
Method: broth microdilution
Strain: MTCC 0459
For `COc1ccc(N=Nc2c(N)nn3c(-c4ccc(C)cc4)cc(-c4ccc(OCc5ccccc5)cc4)nc23)cc1`, the MBC/MIC ratio was 2.
`COc1ccc(N=Nc2c(N)nn3c(-c4ccco4)cc(-c4ccc(OCc5ccccc5)cc4)nc23)cc1` has an MBC/MIC ratio of 2.
With `Cc1ccc(N=Nc2c(N)nn3c(-c4ccco4)cc(-c4ccc(OCc5ccccc5)cc4)nc23)cc1` the MBC/MIC ratio was 2.
`Nc1nn2c(-c3ccco3)cc(-c3ccc(OCc4ccccc4)cc3)nc2c1N=Nc1ccc(F)cc1` has an MBC/MIC ratio of 16.
The MBC/MIC ratio of `Cc1ccc(N=Nc2c(N)nn3c(-c4ccc(Cl)cc4Cl)cc(-c4ccc(OCc5ccccc5)cc4)nc23)cc1` is reported as 4.

Block 2
Target: human lysosomal acid alpha-glucosidase
Action: inhibitor
With: pNPG substrate
`COc1cc(/C=N/NC(=S)N/N=C\c2ccc(CCl)cc2)ccc1Oc1ccnc2cc(Cl)ccc12` gave an IC50 of 11.13 ± 0.11 µg/mL.
`COc1cc(/C=N/NC(=S)NN=Cc2cccs2)ccc1Oc1ccnc2cc(Cl)ccc12` gave an IC50 of 9.97 ± 0.08 µg/mL.
The IC50 of `COc1cc(/C=N/NC(=S)N/N=C\c2ccc([N+](=O)[O-])cc2)ccc1Oc1ccnc2cc(Cl)ccc12` is reported as 8.58 ± 0.32 µg/mL.

Block 3
Target: mushroom tyrosinase
Action: inhibitor
Method: colorimetric
With: L-DOPA substrate
`COc1cc(-c2nc3ccccc3c(=O)n2Nc2ccc([N+](=O)[O-])cc2[N+](=O)[O-])ccc1OCc1cn(CC(=O)Nc2cccc(C)c2)nn1` has an IC50 of 29.5 ± 8.51 µM.
The IC50 of `COc1ccc(NC(=O)Cn2cc(COc3ccc(-c4nc5ccccc5c(=O)n4Nc4ccc([N+](=O)[O-])cc4[N+](=O)[O-])cc3OC)nn2)c(OC)c1` is reported as 17 ± 1.66 µM.
`CCc1ccc(NC(=O)Cn2cc(COc3ccc(-c4nc5ccccc5c(=O)n4Nc4ccc([N+](=O)[O-])cc4[N+](=O)[O-])cc3OC)nn2)cc1` has an IC50 of 22.9 ± 5.65 µM.

Mixed results
For `O=C(Nc1cc(-c2ccc(Cl)cc2)[nH]n1)C1CCCCC1`, the remaining activity was 72% (Inhibitor of nuclear factor kappa-B kinase subunit epsilon (IKBKE, Homo sapiens, UniProt Q14164); enzyme activity, Dundee kinase panel; 10 µM).

A few entries again (block 1):
For `COc1ccc(N=Nc2c(N)nn3c(-c4ccc(C)cc4)cc(-c4ccc(OCc5ccccc5)cc4)nc23)cc1`, the MBC/MIC ratio was 2.
